Measurements gathered from unrelated publications.
Every numbered part comes from another study and shows a few of its results, in no order.

Set 1
Target: RING finger protein unkempt homolog, zinc fingers 1-6, GST-SBP tag (UNK, Homo sapiens, UniProt Q9C0B0, residues 30-357)
UniProt Q9C0B0, sequence (30-357, looked up): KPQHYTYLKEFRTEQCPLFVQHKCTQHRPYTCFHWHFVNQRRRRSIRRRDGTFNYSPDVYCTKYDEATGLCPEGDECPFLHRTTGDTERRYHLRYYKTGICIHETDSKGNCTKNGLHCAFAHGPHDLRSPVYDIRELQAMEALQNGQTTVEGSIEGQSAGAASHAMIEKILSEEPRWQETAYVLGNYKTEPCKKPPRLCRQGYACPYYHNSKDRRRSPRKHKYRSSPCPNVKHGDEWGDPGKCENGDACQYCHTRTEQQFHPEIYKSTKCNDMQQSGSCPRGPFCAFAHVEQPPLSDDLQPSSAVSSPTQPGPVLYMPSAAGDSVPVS
Technique: RNA Bind-n-Seq
Molecule type: RNA
Matrix: in vitro
Concentration: not given
Setting: RNA with constant flanks, ends assumed
Relative to: input RNA pool
Direction: higher = stronger binding
Quantity: bound/input enrichment
Constant ends, left off below: GGGAGUUCUACAGUCCGACGAUC … CAACAGAGGAUUGAGCAUCA
GUCCCAGUCUCAGACGCGGCUAAAGCGCUGGGGUCUGAGAAGGAAAGCGACCACGGUGCUCCGGUGUCUUGAAGGAUCAGAGGUACCUAAGGUUCAACCUGUCGAGGAGGCAGUGGAUAU: 0.157 ratio
GCUUUUAAUGGAGUUAUGUUUGGAGACAGGCCACUGAAAAUAAAUCACUCCAACAAUGCAACCGUAAAACCUCCUGAGAUGACACCUCAGGCUGCAGCUAAGGAGUUAGAAGAAGUAAUG: 1.12 ratio
GUCUUCACGUGCUUCCGUUGUGCAGCUGCCUGGUGUCGGCCGGAGCAGGGCGCAGUGACCGCUUUUCAUCAUGAAUCGGAAGAAGGUGGAUAACCGAAUUCGAAUUCUCAUUGAGAAUGG: 0.153 ratio
CGGGAAGCUGUAUGCAUUGUUCUUUCUGAUGACACGUGUUCUGAUGAGAAGAUUCGAAUGAACCGAGUUGUUCGGAAUAACCUCCGAGUUCGCCUAGGAGAUGUCAUCAGCAUCCAGCCA: 0.104 ratio
GAGAGCCGCCUGUCUUGGUUAGAUGGCUCUGGAUUAGGAUUCUCACUGGAAUACCCCACCAUCCGUUUACAUGCAUUAUCCAGGGACCGAAGUGACUGUCUAGGAGAGCAUUUGUAUGUU: 0.286 ratio
GACAUCCUCUAUGCCCGGCAGAAGGUUGUUGUCACGGCAAAAGCCUUUGGCCUACAAGCCACCGAUCUUGUGUACAUUGACUUCCGAGAUGAAGACGGACUUCUCAGACAGUCAAGGGAA: 0.239 ratio
CCUUCUGCAUAAGGUUUUUUUGUAGUGUAAUGUCUUAAUCAUAGUCUACCAUCAAAUAUUUCCGGAGUAUCUUUAAUGUUUAGAUAGUAUAUUAGCAGCAUGCAAUAAUUACAUCAUAAG: 0.639 ratio
AGUUAGAAAUUAAGUCUACUGAAAAAUUUACAUUUUGAGUCAGGUUUUGUGUCAGUACUUCCGCAGUUUUUGAGAAUGUGUUUGAUAUCACAGUGUUUGUAAAUUCUAUGAAAAAUGCAU: 0.476 ratio

Set 2
Target: RNA binding protein fox-1 homolog 2, RRM domain, GST-SBP tag (RBFOX2, Homo sapiens, UniProt O43251-10, residues 100-194)
Technique: RNA Bind-n-Seq
Molecule type: RNA
Matrix: in vitro
Concentration: 365 nM
Setting: natural RNA segment, single round, ends assumed
Relative to: no-protein control
Direction: higher = stronger binding
Quantity: RBNS enrichment (R)
Constant ends, left off below: GGGAGUUCUACAGUCCGACGAUC … UGGAAUUCUCGGGUGCCAA
Target sequence (chain): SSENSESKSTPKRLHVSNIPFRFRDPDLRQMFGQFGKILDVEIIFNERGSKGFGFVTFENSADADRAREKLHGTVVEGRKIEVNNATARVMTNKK
UGCUUUGGACUUGCUUUAGGAGGGAAAUAUAGCUUUGUAGAGAUAAAGGCUGACAUCUGGGGUCUAGCCUAGCACCUGAAGAUACUUGUGAUGUCUAACUCUGCAUAGCC: 1.33
AUAAUCAUGAGUCAUGCAGAGCCAAGAAAAGAAAUAUAUUAUGGUAUAUGUAAAGUGAUAUUUCGCUCUACAAGUUUGGCCUUAAUUAAACUCAUGAAUUAUAGGCAUUU: 0.375
CUACAAAGAGAGAGGUGGCCCCCCUUUCUUGACCUCCUCCUCCUUCAAGCUCAAACACCACCUCCCUUAUUCAGGACCGGCACUUCUUAAUGUUUGUGGCUUUCUCUCCA: 0.545
CCGACUUCCUUUCUGCGUCACCAGUGUCGUCAGCAGAGAGAGGACAGCACAGGCUCAAGGUUGGUAGUGAAGUCAGGUUCGGGGUGCAUGGGCUGUGGUGGUGUUGAUCA: 1.42
CCAGGACAACUGCAAAGAAAACAAGCUGAGGUGGUUAUACUGUUGCUGUUAAAAGUUGGUAUCAGUAAGAUUUGUGUUUUGUGAUAAUCCCUAAAUCAACAUACCACUUG: 0.434
UUUUUUAAAGCUUACGUACUUGAAUUUUAUAUCAGGAAGAUGGUUUUUGAGCCUGUUCCUUACCCUUGACUAUAGUUGGUAGUUGGUCUCUUUUUUCCCCCUAGGGGAGG: 0.337
GAAGUGGCUUAGGCCAAAGCUUCCUGUGUGAUGACGCACGUCCGAGACUGUUCCAUCUCAUUCCUCGCAAAUUUGAGCUCUUCUGAUCAAUUCUAAAUAUUUGAUUAAUU: 0.322
AAUGUAGUCAGCACUUAAUGGAGAGUAUGGAGUAGUGCAUUUUGCAGGGAUUUUUAUUCCGUCUUUUGAGGGGAAGAAUCUCUUUUUUGCAUUAAAAAAUCAUAUAAACU: 0.383

Set 3
Target: Protein max, full length (MAX, Homo sapiens, UniProt P61244-2, residues 1-151)
Technique: protein-binding microarray
Molecule type: double-stranded DNA, one strand shown
Matrix: in vitro
Concentration: not given
Setting: k-mer, scored over probes, only values ≥0.25
Direction: higher = stronger binding
Quantity: E-score
GTGTTACA: 0.28
CATGTACG: 0.26
CTCACGCC: 0.296
CACCTGGG: 0.312
CATGCAGA: 0.307
TCGTGACA: 0.296
ATCACGCC: 0.327
AAACGTGG: 0.426
TCGCCACA: 0.265
CATGCGGA: 0.44
CAGTCATG: 0.279
ACGGGGCG: 0.268
ACTCACAT: 0.309
ACCACGAG: 0.436
ATGTGCGA: 0.361
ACACGAGG: 0.475
ACCTCATG: 0.41
CAATCACG: 0.36
ACGCGCGC: 0.287
TCACGAGA: 0.293
ACACCACG: 0.362
CACGAGGC: 0.461
ATTGCACG: 0.366
TCACACGA: 0.265
CGTGGCGA: 0.374

Set 4
Target: Histone acetyltransferase KAT6A, winged helix 1, GST fusion (KAT6A, Homo sapiens, UniProt Q92794, residues 1-85)
Technique: protein binding microarray
Molecule type: double-stranded DNA, one strand shown
Matrix: in vitro
Concentration: not given
Setting: 8-mer, flanks averaged, mean of 2 arrays, mostly near background
Relative to: not given
Direction: higher = stronger binding
Quantity: E-score
Construct (chain): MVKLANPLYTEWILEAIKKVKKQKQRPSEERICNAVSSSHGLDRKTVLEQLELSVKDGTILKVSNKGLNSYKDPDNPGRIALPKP
AAAACGAC: -0.0173
CAGTCCGG: 0.158
ACCGGACC: 0.199
AGGCTTGA: -0.234
CAAGATTG: -0.126
AGCATGGG: -0.186
AACTTATC: -0.0956
ACACGTCC: -0.0255
GTAGAGTA: -0.07
GAAGACTC: -0.0777
TATTGTAA: -0.0332
GAAGTAGA: -0.253
CACCTCCC: -0.0436
CCGTAGAG: 0.11
AATAAGCA: -0.243
ATCATCGC: 0.155
CATCTCGA: -0.302
CATTGTCC: 0.00412
CTATAGAG: -0.0867
CCATTCAA: -0.182
CCATGTCA: -0.152
CTCATCTA: -0.233
CCCTTAGG: -0.203
CTGCATCC: -0.242

Set 5
Target: Hepatocyte nuclear factor 3-alpha (Foxa1, Mus musculus, UniProt P35582, residues 1-468, full length assumed)
UniProt P35582, sequence (whole entry, looked up): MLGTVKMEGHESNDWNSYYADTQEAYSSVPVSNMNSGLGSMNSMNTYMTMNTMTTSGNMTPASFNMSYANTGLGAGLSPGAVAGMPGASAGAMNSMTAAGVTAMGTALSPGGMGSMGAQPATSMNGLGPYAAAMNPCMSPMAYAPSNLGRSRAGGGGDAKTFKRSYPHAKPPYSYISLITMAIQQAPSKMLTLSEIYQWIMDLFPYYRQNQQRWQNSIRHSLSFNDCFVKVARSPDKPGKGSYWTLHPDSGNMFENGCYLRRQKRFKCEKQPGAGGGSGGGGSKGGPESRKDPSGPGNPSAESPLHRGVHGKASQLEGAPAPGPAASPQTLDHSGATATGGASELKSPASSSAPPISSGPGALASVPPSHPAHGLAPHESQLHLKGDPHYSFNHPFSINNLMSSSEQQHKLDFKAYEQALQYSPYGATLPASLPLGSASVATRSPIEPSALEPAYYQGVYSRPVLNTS
Technique: EMSA with sequencing
Molecule type: double-stranded DNA, one strand shown
Matrix: in vitro
Concentration: 10 and 20 nM
Setting: whole designed probe, mean of two concentrations, ends assumed
Relative to: negative control set to 0
Direction: higher = stronger binding
Quantity: normalised bound fraction
Constant ends, left off below: GTGAGCGGTGCCCATTGATGGGGAAC … TTTCACTGGGATCGTGGGGAC
ATTATTTATTGTAAAAGATGTCAGGAACTATAAAATACTTCAAACAGGTTTGTGAAAGGTCTTGACTTCAAGAAATATGACGAGTAAATGCATGTTTACATATTTTTTCTCCCCAAAAGCTATCAAAAGGAACCAAAAGTGAGAAAAAGATAAAAAAGAAAAAGAAAACATTAACTTTGAGCTTAAGAAATTG: 0.27 ratio
CATATAAATGAATATAAATATGAATATGAATACAATCAATAGATAGACATCTGCCATCTTCTTACCACTGCCACCCATCCCAGTGACTTTTTGTAGATTACTCAGACTAAAATGTCATCATAAGATAAAAATCCATCTATATTTCTATTTGGGATCAATACTACAAAATTACTGTTACTTGTCATCCTTTGAT: 0.00969 ratio
TGTATCCATCTGGGCAGTATCTTCTCTGGGCCTGGCCTGTCATAGGTGCTTCAGGTTTCCCCATTTGAACCAGATACCAGTCGGGTTACCGGATGTTTGCTTAAAATGGGCTTCCTGCTAGTCATAATTCCTGTGCTGCTTCCAGCTAGGACTGATCGAATCAGTCTGGATTTTCCTTGGGGTGATCCGCAGG: 0.142 ratio
TTTCTTTCCACCTCCTTACTCTGAGACAGAGATCCAGTTTATATGTACATTCTATCTTATAAATCAACACTGACAGTTGTATAATTTTAAATGTAAACAAGGACAAAAAAGAATAGAAAATAAGCACATTTTAGGACACAGAATAATCAAAGCCAACATATTATAATATTTAGTTTATTGCAATATTGTGGAG: 0.344 ratio
CCTCTCTGTGTTAATAATTAGACAAAGCTGGAGTCAGAAGTGAAGTTTCTATTAGACAGAGAGGCATAAACAGAGTAAGAATGAAGTGTGTCTTGTGTACATATGGGAGGGAAAATGAGGTTCAAGAGTCCATAAAAGCTTTAGTAATATTTGATCAGCAGTGTTTGTGCCTTCTTTTTCCTGGACTGCAACT: 0.279 ratio

Excerpt of the above (set 3):
TCACACGA: 0.265
CAGTCATG: 0.279
CTCACGCC: 0.296
CACGAGGC: 0.461
TCGTGACA: 0.296
ACTCACAT: 0.309
ACACGAGG: 0.475
CGTGGCGA: 0.374
ACCACGAG: 0.436
